Experimental data collected from several papers.
± marks the error that the study gave.

For CCCCCCCCCCCCCCCC(=O)N[C@@H](CCC(=O)NCCOCCOCCC(=O)NCCOCCOCCC(=O)NCCCC[C@H](NC(=O)[C@H](CC(=O)O)NC(=O)[C@H](CC(C)C)NC(=O)[C@H](Cc1ccc(O)cc1)NC(=O)[C@H](CCCCN)NC(=O)[C@H](CO)NC(=O)[C@H](Cc1ccc(O)cc1)NC(=O)[C@H](CC(=O)O)NC(=O)[C@H](CO)NC(=O)[C@@H](NC(=O)[C@H](Cc1ccccc1)NC(=O)[C@@H](NC(=O)CNC(=O)[C@H](CCC(N)=O)NC(=O)[C@@H](CO)NC(=O)[C@@H](N)Cc1c[nH]cn1)[C@@H](C)O)[C@@H](C)O)C(=O)N[C@@H](CCCNC(=N)N)C(=O)N[C@@H](CCCNC(=N)N)C(=O)N[C@@H](C)C(=O)N[C@@H](CCC(N)=O)C(=O)N[C@@H](CC(=O)O)C(=O)N[C@@H](Cc1ccccc1)C(=O)N[C@H](C(=O)N[C@@H](CCC(N)=O)C(=O)N[C@@H](Cc1c[nH]c2ccccc12)C(=O)N[C@@H](CC(C)C)C(=O)N[C@@H](CC(C)C)C(=O)N[C@@H](CC(N)=O)C(=O)N[C@H](C(=O)NCC(=O)NCC(=O)N1CCC[C@H]1C(=O)N[C@@H](CO)C(=O)N[C@@H](CO)C(=O)NCC(=O)N[C@@H](C)C(=O)N1CCC[C@H]1C(=O)N1CCC[C@H]1C(=O)N1CCC[C@H]1C(=O)N[C@@H](CO)C(N)=O)[C@@H](C)O)C(C)C)C(=O)O, the Tmax was 1 h (rhesus monkey, male, plasma; subcutaneous, 20 µg/kg, day 1, toxicokinetics, median).
The Tmax of C[C@H]1C(=O)O[C@@H]2O[C@@]3(C)CC[C@@H]4[C@@]2(OO3)[C@H]1CC[C@]4(C)O is reported as 2 ± 1.3 h (human; dose not given, day 2).
CCOc1ccccc1-n1c(CN2CCNCC2)nc2ccccc2c1=O gave a Tmax of 1 h (C57BL/6 mouse, male, plasma; oral, 6 mg/kg).
For CC1(C)C(=O)N(c2ccc(C#N)c(C(F)(F)F)c2)C(=S)N1c1ccc(C(N)=O)c(F)c1, the Tmax was 216 ± 35.5 h (healthy male humans, plasma; oral, 40 mg, fasting, soft capsules).
CCN(C)C(=O)Oc1ccccc1/C=C1\Cc2cc(OC)c(OC)cc2C1=O has a Tmax of 7.6 h (male Sprague-Dawley rat, plasma; oral, 100 mg/kg, single dose).
With NC1CCN(C(=O)Oc2ccc(C3CCCC4(C3)OOC3(O4)C4CC5CC(C4)CC3C5)cc2)CC1 (racemic) the Tmax was 8 h (male Sprague-Dawley rat, plasma; oral, 50 mg/kg).
CC1(C)C(=O)N(c2ccc(C#N)c(C(F)(F)F)c2)C(=S)N1c1ccc(C(=O)O)c(F)c1 has a Tmax of 96 ± 39.6 h (human, male, plasma; oral, 80 mg, single dose, fasting).
With CC(C)N1CCCCC1C(=O)NC(Cc1ccc(-c2ccccc2)cc1)B(O)O (centres unmarked) the Tmax was 0.5 h (rat, plasma; oral, 1 mg/kg).

For quick reference, copied from above:
CC1(C)C(=O)N(c2ccc(C#N)c(C(F)(F)F)c2)C(=S)N1c1ccc(C(=O)O)c(F)c1 has a Tmax of 96 ± 39.6 h (human, male, plasma; oral, 80 mg, single dose, fasting).
